Experimental data pooled from the literature.
Compare with care: the assays were run in different laboratories. “And” joins repeats or separate records; there may be more than shown. ± marks the error that the study gave.

| SMILES | target | assay | system | setting | scale | endpoint | value |
| --- | --- | --- | --- | --- | --- | --- | --- |
| CC[C@H](C)[C@@H]1NC(=O)CNC(=O)[C@H](CC(=O)O)NC(=O)[C@H](CC(=O)O)NC(=O)[C@@H]2CSSC[C@@H]3NC(=O)[C@H](Cc4c[nH]cn4)NC(=O)[C@H](CCCNC(=N)N)NC(=O)[C@H](CCCNC(=N)N)NC(=O)[C@@H](NC(=O)[C@H](CO)NC(=O)[C@@H](N)Cc4c[nH]cn4)CSSC[C@H](NC(=O)[C@H](C)NC(=O)[C@H](Cc4c[nH]c5ccccc45)NC(=O)CNC(=O)[C@H](CSSC[C@@H](C(=O)N[C@@H](CCCCN)C(=O)N4CCC[C@H]4C(=O)N[C@@H](CC(C)C)C(=O)N[C@@H](CCCNC(=N)N)C(=O)N[C@H](C(=O)O)C(C)C)NC1=O)NC(=O)[C@H](CCCNC(=N)N)NC(=O)[C@H](CCCNC(=N)N)NC(=O)[C@H](CC(N)=O)NC(=O)[C@H](CCC(=O)O)NC(=O)[C@H](Cc1c[nH]cn1)NC3=O)C(=O)N[C@@H](Cc1ccc(O)cc1)C(=O)N2 | hKv1.6 human | – | – | concentration not given | – | ion current | no effect |
| Cc1[nH]nc2c1N=C(c1ccccc1Cl)c1cnc(N3CCOCC3)cc1N2 | NMDA receptor phencyclidine site, rat | radioligand binding | – | 10 µM | – | inhibition | 2% |
| Cc1ccc2c(n1)c(-c1cccc(S(C)(=O)=O)c1)c(C)n2C/C(F)=C/CN | L-type calcium channel, rat, Dihydropyridine site | radioligand binding, Eurofins SafetyScreen | – | 10 µM | – | inhibition | 39% |
| CC(C)CC(O)(CC(C)C)c1cn(C(=O)N2CCCC2)nn1 | other serine hydrolases, human and rat | inhibitor, gel-based competitive ABPP | cancer cell proteomes | concentration not given, 30 min, 37 °C | – | inhibition | no inhibition |
| CCOC(=O)[C@](CC)(CCCSCCOCCOCCNC(=O)c1ccc(-c2c3ccc(=N)c(S(=O)(=O)O)c-3oc3c(S(=O)(=O)O)c(N)ccc23)c(C(=O)O)c1)NC(=O)c1ccc(C2CC2)c(Cc2ccc(F)cc2)n1 | HIV-1 protease | enzyme activity | – | 10 µM | – | inhibition | 47% |
| CSCC[C@H](NC(=O)CNC(=O)[C@H](CCSC)NC(=O)[C@H](CS)NC(=O)[C@@H](N)CS)C(=O)N[C@@H](CS)C(=O)NCC(=O)N[C@@H](CCCCN)C(=O)O | ERK (mouse) | Western blot | RAW264.7 | concentration not given, 6 h pretreatment, added: LPS for 30 min | – | p-ERK/ERK ratio | 0.53 ± 0.03 |
| CC(C)[C@H](NC(=O)[C@H](CCCNC(=N)N)NC(=O)[C@H](Cc1c[nH]c2ccccc12)NC(=O)CN)C(=O)N[C@@H](CO)C(=O)N[C@@H](CCC(=O)O)C(=O)N[C@@H](Cc1ccccc1)C(=O)NCC(=O)NCC(=O)NCC(=O)N[C@@H](CO)C(=O)N[C@@H](CCCCNC(=O)CCCC[C@@H]1SC[C@@H]2NC(=O)N[C@@H]21)C(=O)O | cowpea mosaic virus particles | binding, competitive phage ELISA | cowpea mosaic virus | – | – | IC50 | 1140 nM |
| Nc1ncc(-c2cc(-c3cnn(CC(F)(F)F)c3)ncc2F)nc1C(=O)NC1CNCC(F)C1 (stereo not shown) | ABL1(Y253F)-phosphorylated | KINOMEscan competition binding | – | 1 µM | relative to: DMSO control | remaining binding | 85% |
| CC[C@@H]1CN2CCc3c([nH]c4cccc(OC)c34)[C@@H]2C[C@@H]1/C(=C\OC)C(=O)OC | rabbit anti-mitragynine polyclonal IgG | antigen binding, competitor, competitive indirect ELISA | 15% methanol | 30 min antibody-standard, 60 min antibody-antigen incubation | – | IC50 | 1.29 µg/mL and 1.3 µg/mL |
| COc1ccc(C(C)(C)CC(C)(C)C)cc1 | HBV core protein Cp149 dimer | solution NMR | – | 4 molar equivalents, pH 7.5, 295 K, average over eight residues | relative to: apo Cp149 dimer | average chemical shift perturbation | 0.077 ppm |

Some of these lines once more:
| SMILES | target | assay | system | setting | scale | endpoint | value |
| --- | --- | --- | --- | --- | --- | --- | --- |
| CC[C@H](C)[C@@H]1NC(=O)CNC(=O)[C@H](CC(=O)O)NC(=O)[C@H](CC(=O)O)NC(=O)[C@@H]2CSSC[C@@H]3NC(=O)[C@H](Cc4c[nH]cn4)NC(=O)[C@H](CCCNC(=N)N)NC(=O)[C@H](CCCNC(=N)N)NC(=O)[C@@H](NC(=O)[C@H](CO)NC(=O)[C@@H](N)Cc4c[nH]cn4)CSSC[C@H](NC(=O)[C@H](C)NC(=O)[C@H](Cc4c[nH]c5ccccc45)NC(=O)CNC(=O)[C@H](CSSC[C@@H](C(=O)N[C@@H](CCCCN)C(=O)N4CCC[C@H]4C(=O)N[C@@H](CC(C)C)C(=O)N[C@@H](CCCNC(=N)N)C(=O)N[C@H](C(=O)O)C(C)C)NC1=O)NC(=O)[C@H](CCCNC(=N)N)NC(=O)[C@H](CCCNC(=N)N)NC(=O)[C@H](CC(N)=O)NC(=O)[C@H](CCC(=O)O)NC(=O)[C@H](Cc1c[nH]cn1)NC3=O)C(=O)N[C@@H](Cc1ccc(O)cc1)C(=O)N2 | hKv1.6 human | – | – | concentration not given | – | ion current | no effect |
| CSCC[C@H](NC(=O)CNC(=O)[C@H](CCSC)NC(=O)[C@H](CS)NC(=O)[C@@H](N)CS)C(=O)N[C@@H](CS)C(=O)NCC(=O)N[C@@H](CCCCN)C(=O)O | ERK (mouse) | Western blot | RAW264.7 | concentration not given, 6 h pretreatment, added: LPS for 30 min | – | p-ERK/ERK ratio | 0.53 ± 0.03 |
